Published values from different studies.
Every numbered part comes from another study and shows a few of its results, in no order. “And” joins repeats or separate records; there may be more than shown. Values after ≈ are worked out from the molar mass of the structure shown.

Study 1
Compound: Cc1ncsc1-c1ccc(C(CO)NC(=O)C2CC(O)CN2C(=O)C(C(C)C)n2cc(-c3ccc(COc4c(-c5c(C)c(F)cc6[nH]ncc56)c(C5CC5)cc5c(N6CC7CC6CN7)nc(OC6CCOCC6)nc45)cc3)nn2)cc1 (centres unmarked)
Endpoint: body weight
mouse, HT-29 xenograft; sc, 30 mg/kg once daily, day 1: 17.7 g and 18 g and 20.5 g and 19.9 g and 18.3 g
mouse, GP2d xenograft; 30 mg/kg once weekly, day 7: 23.6 g
mouse, lung LXFA sample B PDX; 30 mg/kg twice weekly, day 11: 26.6 g
mouse, GP5d xenograft; 30 mg/kg once weekly, day 7: 29 g
mouse, PK-59 xenograft; 10 mg/kg, day 14: 25.6 g and 24.4 g
mouse, A-375 xenograft; sc, 30 mg/kg once daily, day 1: 18 g and 18.7 g and 19.2 g and 18.4 g and 17.5 g
mouse, A-375 xenograft; sc, 30 mg/kg once daily, day 8: 17.9 g and 19.9 g and 19 g and 18.9 g
mouse, PK-59 xenograft; 10 mg/kg, day 17: 24.5 g and 24.1 g and 25.6 g
mouse, PK-59 xenograft; 1 mg/kg, day 4: 24.6 g and 26 g and 25.4 g and 25 g and 30.3 g
mouse, GP5d xenograft; 30 mg/kg once weekly, day 4: 29 g and 22.9 g and 23.6 g and 25.4 g

Study 2
Compound: C[C@@H]1CN(c2ccc(-c3cc(C(=O)NCCOCCOCCOCCOCCOCCOCCNC(=O)/C=C/c4[nH]cc(C(=O)N[C@@H](CC(N)=O)c5ccc(F)c(Cl)c5)c4-c4ccc(Cl)cc4F)ccc3F)cc2NC(=O)c2ccc(F)cc2C(F)(F)F)C[C@H](C)N1C
Observed: thermal unfolding
Technique: differential scanning fluorimetry
Tested at: 5.5 µM
Reading: higher = more unfolded
Endpoint: SYPRO Orange fluorescence
WDR5: WD repeat-containing protein 5 (WDR5, Homo sapiens, UniProt P61964)
DCAF1: DDB1- and CUL4-associated factor 1 (DCAF1, Homo sapiens, UniProt Q9Y4B6)
UniProt Q9Y4B6, sequence (whole entry, looked up): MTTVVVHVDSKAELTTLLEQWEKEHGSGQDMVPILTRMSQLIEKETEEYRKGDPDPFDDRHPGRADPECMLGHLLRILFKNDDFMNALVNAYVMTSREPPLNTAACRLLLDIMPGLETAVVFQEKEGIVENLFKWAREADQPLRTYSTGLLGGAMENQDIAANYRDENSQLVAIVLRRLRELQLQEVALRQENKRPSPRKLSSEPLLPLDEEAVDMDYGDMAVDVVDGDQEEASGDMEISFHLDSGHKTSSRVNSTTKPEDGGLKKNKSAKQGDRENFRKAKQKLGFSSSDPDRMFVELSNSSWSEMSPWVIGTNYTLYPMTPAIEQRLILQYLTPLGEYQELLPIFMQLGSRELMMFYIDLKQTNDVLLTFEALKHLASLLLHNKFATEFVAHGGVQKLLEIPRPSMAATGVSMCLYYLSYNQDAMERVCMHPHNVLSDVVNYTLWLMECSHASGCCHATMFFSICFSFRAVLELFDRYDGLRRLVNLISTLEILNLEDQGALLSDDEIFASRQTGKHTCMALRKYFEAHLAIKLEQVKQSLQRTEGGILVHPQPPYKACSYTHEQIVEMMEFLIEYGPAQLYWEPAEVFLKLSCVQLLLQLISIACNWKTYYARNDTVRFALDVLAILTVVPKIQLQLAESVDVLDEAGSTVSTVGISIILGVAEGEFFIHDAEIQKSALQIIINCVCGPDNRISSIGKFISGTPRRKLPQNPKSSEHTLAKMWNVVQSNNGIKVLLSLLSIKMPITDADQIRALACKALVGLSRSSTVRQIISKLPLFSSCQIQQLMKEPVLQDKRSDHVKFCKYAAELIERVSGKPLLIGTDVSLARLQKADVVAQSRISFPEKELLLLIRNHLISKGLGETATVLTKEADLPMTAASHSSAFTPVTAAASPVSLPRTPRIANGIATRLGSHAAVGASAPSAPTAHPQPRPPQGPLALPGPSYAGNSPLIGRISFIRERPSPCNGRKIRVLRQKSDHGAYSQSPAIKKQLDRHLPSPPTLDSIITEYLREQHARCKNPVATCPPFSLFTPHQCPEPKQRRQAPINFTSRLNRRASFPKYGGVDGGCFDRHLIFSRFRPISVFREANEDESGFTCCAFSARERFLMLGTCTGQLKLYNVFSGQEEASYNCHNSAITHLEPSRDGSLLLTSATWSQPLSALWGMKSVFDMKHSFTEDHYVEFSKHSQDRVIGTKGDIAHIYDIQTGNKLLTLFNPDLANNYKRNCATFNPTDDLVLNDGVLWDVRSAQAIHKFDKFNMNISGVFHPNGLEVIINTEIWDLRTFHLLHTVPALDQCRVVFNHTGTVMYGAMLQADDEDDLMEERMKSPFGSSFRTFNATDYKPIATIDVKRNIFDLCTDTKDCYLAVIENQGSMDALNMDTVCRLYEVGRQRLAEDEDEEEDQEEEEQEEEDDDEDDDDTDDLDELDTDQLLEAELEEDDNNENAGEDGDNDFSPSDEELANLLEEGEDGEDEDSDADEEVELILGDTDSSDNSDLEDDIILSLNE
WDR5; 44.2 °C: 14500 a.u.
DCAF1; 62.41 °C: 53300 a.u.
WDR5; 91.81 °C: 52100 a.u.
DCAF1; 26.4 °C: 7450 a.u.
DCAF1; 30.4 °C: 8480 a.u.
WDR5; 29.6 °C: 13600 a.u.
WDR5; 34.6 °C: 13800 a.u.
WDR5; 42.8 °C: 14500 a.u.
DCAF1; 72.61 °C: 46000 a.u.
WDR5; 45.4 °C: 14600 a.u.
WDR5; 38.4 °C: 13900 a.u.

Study 3
Matrix: FeSSIF
Time: 24 h
pH: 5.0
Endpoint: kinetic solubility
Cc1ccc(O)c(C)c1-c1cnc2[nH]c(-c3cnc(N4CCC(CN5CCN(c6ccc7c(c6)CN(C6CCC(=O)NC6=O)C7=O)CC5)CC4)nc3)cc2c1C#N (centres unmarked): 68 µM (≈ 52 µg/mL)
Cc1ccc(O)c(C)c1-c1cnc2[nH]c(-c3cnc(N4CCC(CN5CCN(c6ccc7c(c6F)CN(C6CCC(=O)NC6=O)C7=O)CC5)CC4)nc3)cc2c1C#N (centres unmarked): 157 µM (≈ 123 µg/mL)
Cc1ccc(O)c(C)c1-c1cnc2[nH]c(-c3cnc(N4CCC(CN5CCN(c6ccc7c(c6)C(=O)N(C6CCC(=O)NC6=O)C7=O)CC5)CC4)nc3)cc2c1C#N (centres unmarked): < 1.56 µM
Cc1ccc(O)c(C)c1-c1cnc2[nH]c(-c3cnc(N4CCC5(CC4)CC(N4CCN(c6ccc(NC7CCC(=O)NC7=O)cc6F)CC4)CO5)nc3)cc2c1C#N (centres unmarked): 156 µM (≈ 122 µg/mL)
Cc1ccc(O)c(C)c1-c1cnc2[nH]c(-c3cnc(N4CCC5(CC4)CC(CN4CCN(c6ccc(NC7CCC(=O)NC7=O)cc6F)CC4)C5)nc3)cc2c1C#N (centres unmarked): 182 µM (≈ 142 µg/mL)
Cc1ccc(O)c(C)c1-c1cnc2[nH]c(-c3cnc(N4CCC(CN5CCN(c6ccc(NC7CCC(=O)NC7=O)cc6F)CC5)CC4)nc3)cc2c1C#N (centres unmarked): 109 µM (≈ 81 µg/mL)
Cc1ccc(O)c(C)c1-c1cnc2[nH]c(-c3cnc(N4CCC(CN5CCN(c6cc7c(cc6F)c(N6CCC(=O)NC6=O)nn7C)CC5)CC4)nc3)cc2c1C#N: 125 µM (≈ 97.9 µg/mL)

Study 4
Structure (SMILES): CCN1/C(=C/C=C2\CCCC(/C=C/C3=[N+](CC)c4ccccc4C3(C)C)=C2NCCCCCCCCN2CCC(Nc3nc4ccccc4n3Cc3ccc(F)cc3)CC2)C(C)(C)c2ccccc21
Cell line: U-87 MG
Tested at: concentration not given
Relative to: DMSO
Endpoint: log2 fold change
measured: PPP2R2B mRNA: -1.55
measured: PARP1 mRNA: -1.33
measured: SVEP1 mRNA: -2.15
measured: TMEM119 mRNA: -3.09
measured: CCDC28A mRNA: 0.972
measured: PAWR mRNA: 1.25
measured: CKAP2L mRNA: -1.5
measured: UPP1 mRNA: 1.08
measured: WARS1 mRNA: 1.29
measured: SPAG5 mRNA: -1.67
measured: CYP26B1 mRNA: -2.95
measured: IL17RC mRNA: -0.941
measured: NOD1 mRNA: -1.1
measured: HSPA6 mRNA: 6.74
measured: CCPG1 mRNA: 1.4
measured: C11orf96 mRNA: 2.34
